Assay results gathered from unrelated publications.
Each line is one published result; not all experiments were run side by side.
Organism: Staphylococcus aureus

N=C(N)NCCC[C@@H]1NC(=O)[C@H](CCCNC(=N)N)NC(=O)[C@@H](C(c2ccccc2)c2ccccc2)NC(=O)[C@H](Cc2c[nH]c3ccccc23)NC(=O)[C@@H](C(c2ccccc2)c2ccccc2)NC(=O)[C@@H](CCCNC(=N)N)NC(=O)[C@@H](CCCNC(=N)N)NC1=O
MIC (1195201, multidrug-resistant): 4 µg/mL

CCCCCCCC[C@@H]1NC(=O)[C@@H](CCCN)NC(=O)[C@@H](NC(=O)[C@@H](NC(=O)[C@@H](CCC(=O)O)NC(=O)[C@H](CC(C)C)NC(=O)[C@@H]2CSC([C@@H](N)[C@@H](C)CC)=N2)[C@@H](C)CC)CCCCNC(=O)[C@H](CC(N)=O)NC(=O)[C@@H](CC(=O)O)NC(=O)[C@H](Cc2c[nH]cn2)NC(=O)[C@@H](Cc2ccccc2)NC1=O
MIC (ATCC 29213 MSSA; LB without zinc): 0.5 µg/mL

CC[C@H](C)[C@@H]1NC(=O)[C@H](CO)NC(=O)C(C)(CCCCN)NC(=O)[C@@H]2CSSC[C@@H](C(=O)N[C@@H](Cc3ccc(O)cc3)C(N)=O)NC(=O)[C@H](CCCCN)NC(=O)[C@@H]3CSSC[C@H](NC(=O)[C@H](CCCNC(=N)N)NC(=O)C(C)(CC(C)C)NC(=O)[C@H](CC(=O)O)NC(=O)[C@H](CC(=O)O)NC(=O)[C@H](CCC(=O)O)NC(=O)[C@H](CC(N)=O)NC(=O)[C@H](Cc4c[nH]c5ccccc45)NC(=O)C(C)(CC)NC(=O)CNC(=O)[C@H](CC(N)=O)NC(=O)[C@@H](NC(=O)CNC(=O)[C@H](Cc4ccccc4)NC(=O)CN)CSSC[C@H](NC(=O)[C@H](Cc4ccc(O)cc4)NC(=O)CNC(=O)CNC(=O)[C@H](CCCCN)NC(=O)[C@H](Cc4ccc(O)cc4)NC(=O)[C@H]4CCCN4C(=O)[C@@H]4CCCN4C1=O)C(=O)N[C@@H](C)C(=O)N[C@@H](CCCCN)C(=O)N1CCC[C@@H]1C(=O)NCC(=O)N[C@@H](Cc1ccccc1)C(=O)N[C@@H](C(C)C)C(=O)N3)C(=O)N[C@@H](Cc1c[nH]cn1)C(=O)NC(C)(C)C(=O)N[C@@H](Cc1c[nH]cn1)C(=O)N2 (stereo partly shown)
MIC (broth microdilution; USA300 MRSA; 18 h): 2 µM

c1ccc(CN2CCOCCOCCN(CCCCCCCCN3CCOCCOCCN(CCCCCCCCN4CCOCCOCCN(Cc5ccccc5)CCOCCOCC4)CCOCCOCC3)CCOCCOCC2)cc1
MIC (1199B (NorA overexpressing)): 128 µM

CC(C)C[C@H](NC(=O)[C@H](CCCCN)NC(=O)C1CCC=CCCC(NC(=O)[C@H](CCCCN)NC(=O)[C@@H](N)CC(C)C)C(=O)N[C@@H](CCCCN)C(=O)NC2CCC=CCCC(NC(=O)[C@H](CCCCN)NC(=O)CNC(=O)[C@H]3CCCN3C(=O)[C@H](CCCCN)NC2=O)C(=O)N[C@@H](CCCCN)C(=O)N1)C(N)=O (stereo partly shown)
MIC (broth microdilution; ATCC 29737, Mueller-Hinton broth; 18 h, 37 °C): 128 µM

CN[C@H](CC(C)C)C(=O)N[C@H]1C(=O)N[C@@H](CC(N)=O)C(=O)N[C@H]2C(=O)N[C@H]3C(=O)N[C@H](C(=O)N[C@H](C(=O)O)c4cc(O)cc(O)c4-c4cc3ccc4O)[C@H](O)c3ccc(c(Cl)c3)Oc3cc2cc(c3O[C@@H]2O[C@H](CO)[C@@H](O)[C@H](O)[C@H]2O[C@H]2C[C@](C)(NCc3ccc(OCc4cn(CC(=O)N[C@H](C(=O)N[C@@H](CCN)C(=O)N[C@H]5CCNC(=O)[C@H]([C@@H](C)O)NC(=O)[C@H](CCN)NC(=O)[C@H](CCN)NC(=O)[C@H](CC(C)C)NC(=O)[C@@H](CC(C)C)NC(=O)[C@H](CCN)NC5=O)[C@@H](C)O)nn4)c(OC)c3)[C@H](O)[C@H](C)O2)Oc2ccc(cc2Cl)[C@H]1O
MIC (MRSA USA300): 0.095 µM

CC[C@H](C)[C@H](NC(=O)[C@@H](CCCNC(=N)N)NC(=O)[C@H](CCCNC(=N)N)NC(=O)[C@@H]1CCCN1C(=O)[C@@H]1CCCN1C(=O)[C@H](CCCNC(=N)N)NC(=O)[C@@H]1CCCN1C(=O)[C@H](CCCNC(=N)N)NC(=O)[C@@H]1CCCN1C(=O)[C@H](CC(C)C)NC(=O)[C@H](Cc1ccc(O)cc1)NC(=O)[C@H](CCCNC(=N)N)NC(=O)[C@@H]1CCCN1C(=O)[C@H](CCCCN)NC(=O)[C@H](CC(=O)O)NC(=O)[C@@H](N)C(C)C)C(=O)N[C@@H](Cc1ccc(O)cc1)C(=O)N[C@@H](CC(N)=O)C(=O)N[C@H](CCCNC(=N)N)C(N)=O
MIC (broth microdilution; DSM 6247; 18 h, 37 °C, 25% MHB2): 128 µg/mL

CC[C@H](C)[C@H](NC(=O)[C@@H]1CCCN1C(=O)CNC(=O)[C@H](CC(C)C)NC(=O)[C@H](CCCCN)NC(=O)[C@H](CCCNC(=N)N)NC(=O)[C@H](Cc1c[nH]c2ccccc12)NC(=O)[C@H](C)NC(=O)[C@H](CC(N)=O)NC(=O)[C@H](CCCCN)NC(=O)[C@H](CC(C)C)NC(=O)[C@H](CCCCN)NC(=O)[C@H](CC(N)=O)NC(=O)[C@H](CCCNC(=N)N)NC(=O)[C@H](C)NC(=O)[C@H](CCCNC(=N)N)NC(=O)[C@H](CCCNC(=N)N)NC(=O)[C@H](Cc1ccccc1)NC(=O)[C@H](Cc1c[nH]c2ccccc12)NC(=O)CN)C(=O)N[C@H](C(=O)NCC(=O)N1CCC[C@H]1C(=O)N[C@@H](CC(C)C)C(=O)N[C@@H](CC(C)C)C(=O)N[C@H](C(=O)N[C@@H](CCCNC(=N)N)C(=O)O)[C@@H](C)O)C(C)C
MIC (broth microdilution; ATCC 29213, Mueller-Hinton broth; 16 to 20 h, 37 °C): 8.79 µg/mL

CC[C@H](C)[C@H](NC(=O)[C@@H](CCC(=O)O)NC(=O)[C@H](CC(C)C)NC(=O)c1cccc(-c2ccccn2)n1)C(=O)N[C@H]1CCCCNC(=O)[C@H](CC(N)=O)NC(=O)[C@@H](CC(=O)O)NC(=O)[C@H](Cc2c[nH]cn2)NC(=O)[C@@H](Cc2ccccc2)NC(=O)[C@H]([C@@H](C)CC)NC(=O)[C@@H](CCCN)NC1=O
MIC (ATCC 29213 methicillin-susceptible; 18 h, 37 °C, 0.3 mM ZnSO4 LB): > 64 µg/mL

CN[C@@H]1[C@H](O)[C@H](NC)[C@H]2O[C@]3(O)[C@H](O[C@@H]2[C@H]1O)O[C@H](C)C[C@H]3NC(=O)Cc1cscn1
MIC (microbial growth, broth dilution; 8325): 50 µg/mL

CCn1c(-c2ccc(F)cc2)c(-c2ccc(F)cc2)n(Cc2ccccc2)c1=[Se]
MIC (microbial growth, broth dilution; ATCC700699 VISA; 24 h, drug-resistant strain): > 40 µM

CC(C)C[C@H](NC(=O)[C@H](CCCNC(=N)N)NC(=O)[C@H](C)NC(=O)[C@H](CC(C)C)NC(=O)[C@H](CCCNC(=N)N)NC(=O)[C@H](C)NC(=O)[C@H](CCCCN)NC(=O)[C@H](CC(C)C)NC(=O)[C@H](CCCNC(=N)N)NC(=O)[C@H](Cc1ccc(O)cc1)NC(=O)[C@H](CC(C)C)NC(=O)[C@H](CCCNC(=N)N)NC(=O)[C@H](C)NC(=O)[C@H](CCCNC(=N)N)NC(=O)[C@H](CC(C)C)NC(=O)[C@H](CCCCN)NC(=O)[C@H](C)NC(=O)[C@H](CC(C)C)NC(=O)[C@H](CCCNC(=N)N)NC(=O)[C@H](C)NC(=O)[C@@H](N)CCCCN)C(N)=O
MIC (broth microdilution; ATCC 6538; 24 h): 8.8 µM

CC(C)C[C@@H]1NC(=O)[C@@H](CC(C)C)NC(=O)[C@H](CCN)NC(=O)[C@@H](NC(=O)[C@H](CCN)NC(=O)[C@@H](NC(=O)CCOCCOCCOCCN=[N+]=[N-])[C@@H](C)O)CCNC(=O)[C@H]([C@@H](C)O)NC(=O)[C@H](CCN)NC(=O)[C@H](CCN)NC1=O
MIC (broth microdilution; MSSA ATCC 29213, cation-adjusted Mueller-Hinton broth; 20 to 24 h, 37 °C, 0.002% polysorbate 80): > 16 µg/mL

CC[C@H](C)[C@H](NC(=O)[C@@H](CCCNC(=N)N)NC(=O)[C@H](CCCNC(=N)N)NC(=O)[C@@H]1CCCN1C(=O)[C@@H]1CCCN1C(=O)[C@H](CCCNC(=N)N)NC(=O)[C@@H]1CCCN1C(=O)[C@H](CCCNC(=N)N)NC(=O)[C@@H]1CCCN1C(=O)[C@H](CC(C)C)NC(=O)[C@H](Cc1ccc(O)c([N+](=O)[O-])c1)NC(=O)[C@@H]1CCCN1C(=O)[C@@H]1CCCN1C(=O)[C@H](CCCCN)NC(=O)[C@H](CC(=O)O)NC(=O)[C@@H](N)C(C)C)C(=O)N[C@@H](Cc1ccc(O)cc1)C(=O)N[C@@H](CC(N)=O)C(=O)N[C@H](CCCNC(=N)N)C(N)=O
MIC (broth microdilution; DSM 6247; 18 h, 37 °C, 25% MHB2): > 128 µg/mL

COc1ccc2ccc(O)c(/C=N/[C@H]3CCCC[C@H]3/N=C/c3cc(C(C)(C)C)cc(C(C)(C)C)c3O)c2c1
MIC (bacterial growth, broth microdilution; vancomycin-intermediate): > 40 µM

CC1COC2=C1C(=O)C(=O)c1c2ccc2c1C(OC(=O)CNC(=O)C(N)CCC(=O)O)CCC2(C)C (mixture of isomers)
MIC (GDMCC 1.122; 48 h): 31 µM

C#CCNC(=O)[C@H]1NC(=O)[C@H]2NC(=O)[C@H](NC(=O)[C@@H]3NC(=O)[C@H](CC(N)=O)NC(=O)[C@H](NC(=O)[C@@H](CC(C)C)NC)[C@H](O)c4ccc(c(Cl)c4)Oc4cc3cc(c4O[C@@H]3O[C@H](CO)[C@@H](O)[C@H](O)[C@H]3O[C@H]3C[C@](C)(N)[C@H](O)[C@H](C)O3)Oc3ccc(cc3Cl)[C@H]2O)c2ccc(O)c(c2)-c2c(O)cc(O)cc21
MIC (broth microdilution; VISA LIM-2, tryptic soy broth; 20 to 24 h, 37 °C, 0.002% polysorbate 80): 2 µg/mL

Cc1ccc2[nH]c3c(c2c1)CCCC3NCCc1ccc(O)cc1 (stereo not shown)
MIC (broth microdilution; SG511 daptomycin-resistant): 16 µg/mL

CC[C@H](C)[C@@H]1NC(=O)[C@@H]([C@@H](C)O)NC(=O)CNC(=O)[C@H](CC(=O)O)NC(=O)CNC(=O)[C@H](CC(=O)O)NC(=O)CNC(=O)[C@H]2CCCCN2C(=O)[C@@H](NC(=O)[C@H](CC(=O)O)NC(=O)/C=C/CCCCCCCCCC(C)C)CNC(=O)[C@@H]2CCCN2C1=O
MIC (broth microdilution; VISA LIM strain 2, Mueller-Hinton broth, Mg2+ 10 mg/L; 16 h, with: Ca2+ 0 mM): > 128 µg/mL

A few entries again:
COc1ccc2ccc(O)c(/C=N/[C@H]3CCCC[C@H]3/N=C/c3cc(C(C)(C)C)cc(C(C)(C)C)c3O)c2c1
MIC (bacterial growth, broth microdilution; vancomycin-intermediate): > 40 µM

CC1COC2=C1C(=O)C(=O)c1c2ccc2c1C(OC(=O)CNC(=O)C(N)CCC(=O)O)CCC2(C)C (mixture of isomers)
MIC (GDMCC 1.122; 48 h): 31 µM
